Published values gathered from unrelated publications.
Numbered parts are unrelated; each lists some results of a single study.

Study 1
Target: Interferon regulatory factor 5, full length, phosphomimetic (IRF5, Homo sapiens, UniProt Q13568-2, residues 1-514, K96S/S451D/S453D/S456D/S462D)
Technique: protein-binding microarray
Molecule type: double-stranded DNA, one strand shown
Matrix: in vitro
Concentration: 250 nM
Setting: 60-bp whole probe
With: salmon DNA 0.4 mg/ml
Relative to: random background probes
Reading: higher = stronger binding
Quantity: log fluorescence
GCCTAGCACGCCGGTATCGACTTTCGGGACGTGCTAGTCTTGATTCGCTTGACGCTGCTG: 7.26 z-score
GCCTAGCACTTAGGACTGTGGTATCGGTTAGTGCTAGTCTTGATTCGCTTGACGCTGCTG: 4.48 z-score
GCCTAGCACCATTTTCTTTAACTCATTCTGTGCTAGGTCTTGATTCGCTTGACGCTGCTG: 1.99 z-score
GCCTAGCACTGAGGTCTCCTTTTCCTTTAGTGCTAGGTCTTGATTCGCTTGACGCTGCTG: -0.229 z-score

Study 2
Target: Centromere-binding protein 1, full length, N-terminal tag (CBF1, Saccharomyces cerevisiae, UniProt P17106, residues 1-351)
UniProt P17106, sequence (whole entry, looked up): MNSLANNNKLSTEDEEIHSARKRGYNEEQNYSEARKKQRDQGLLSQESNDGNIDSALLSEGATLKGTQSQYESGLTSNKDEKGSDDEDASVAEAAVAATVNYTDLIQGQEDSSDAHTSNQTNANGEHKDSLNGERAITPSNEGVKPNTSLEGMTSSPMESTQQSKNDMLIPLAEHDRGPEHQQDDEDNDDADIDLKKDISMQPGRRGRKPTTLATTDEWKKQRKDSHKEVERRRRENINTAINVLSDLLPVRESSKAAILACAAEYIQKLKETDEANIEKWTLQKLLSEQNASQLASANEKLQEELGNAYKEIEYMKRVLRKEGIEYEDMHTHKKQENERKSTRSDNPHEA
Technique: protein-binding microarray
Molecule type: double-stranded DNA, one strand shown
Matrix: in vitro
Concentration: 0.8 µM
Setting: whole 60-bp probe, no competitor
Reading: higher = stronger binding
Quantity: fluorescence intensity
CTACCCAATATAACACACATGAATCGTCGCACATTCGTCTTGATTCGCTTGACGCTGCTG: 568 a.u.
GAAGGCCGAACACAGCACGTGAAAGAACTCTCATAGGTCTTGATTCGCTTGACGCTGCTG: 3570 a.u.
CTAATAGACTATGAATCCGTCATGAAGACACTATTCGTCTTGATTCGCTTGACGCTGCTG: 529 a.u.

Study 3
Target: Sox, HMG box (Pigoraptor chileana)
Technique: Spec-seq
Molecule type: double-stranded DNA, one strand shown
Matrix: in vitro
Concentration: not given
Setting: whole probe, mean of replicates
Relative to: not given
Reading: lower = stronger binding
Quantity: relative binding energy
Construct (chain): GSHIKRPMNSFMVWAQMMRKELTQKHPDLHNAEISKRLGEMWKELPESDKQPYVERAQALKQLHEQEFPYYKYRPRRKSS
GAGTCGTCTCGTCAGCACCATCCAGCCGTAGAGCACTCAGGTC: 0.283 ln ratio
GAGTCGTCTCGTCAGCACAATCGTTCCGTAGAGCACTCAGGTC: -2.46 ln ratio
GAGTCGTCTCGTCAGCACCATCGAACCGTAGAGCACTCAGGTC: 0.346 ln ratio

Other studies, line by line
PhoQ, residues 284 288 289 292 302 303 TLMATV
fold induction (PhoP, residues 12 14 15 18 19 LHTVL (Escherichia coli, UniProt P23836); Sort-seq, item: YFP reporter; E. coli; PhoQ-PhoP variant library, with: 10 µM Mg2+; relative to: high Mg2+ state, higher = stronger signaling): 1.28

For quick reference, copied from above (study 3):
GAGTCGTCTCGTCAGCACAATCGTTCCGTAGAGCACTCAGGTC: -2.46 ln ratio
GAGTCGTCTCGTCAGCACCATCGAACCGTAGAGCACTCAGGTC: 0.346 ln ratio
